Results of several laboratories.
Each numbered part is a random draw from the data of one study; scales do not carry over between parts. Substitutions count along the parent as printed.
Sequence of UniProt Q9Y6M4 (whole entry, looked up): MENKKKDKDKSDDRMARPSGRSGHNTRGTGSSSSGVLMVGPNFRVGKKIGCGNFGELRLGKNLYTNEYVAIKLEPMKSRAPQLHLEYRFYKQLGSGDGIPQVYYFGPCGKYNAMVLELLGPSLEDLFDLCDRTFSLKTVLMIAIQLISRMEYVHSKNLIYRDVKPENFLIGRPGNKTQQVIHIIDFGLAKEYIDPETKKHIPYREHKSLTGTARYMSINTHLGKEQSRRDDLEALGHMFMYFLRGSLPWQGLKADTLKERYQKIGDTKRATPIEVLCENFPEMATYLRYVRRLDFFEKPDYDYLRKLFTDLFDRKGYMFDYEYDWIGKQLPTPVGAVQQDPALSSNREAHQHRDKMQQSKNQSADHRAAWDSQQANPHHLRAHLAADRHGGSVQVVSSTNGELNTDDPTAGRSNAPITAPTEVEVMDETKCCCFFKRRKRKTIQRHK
Sequence of UniProt P49137 (whole entry, looked up): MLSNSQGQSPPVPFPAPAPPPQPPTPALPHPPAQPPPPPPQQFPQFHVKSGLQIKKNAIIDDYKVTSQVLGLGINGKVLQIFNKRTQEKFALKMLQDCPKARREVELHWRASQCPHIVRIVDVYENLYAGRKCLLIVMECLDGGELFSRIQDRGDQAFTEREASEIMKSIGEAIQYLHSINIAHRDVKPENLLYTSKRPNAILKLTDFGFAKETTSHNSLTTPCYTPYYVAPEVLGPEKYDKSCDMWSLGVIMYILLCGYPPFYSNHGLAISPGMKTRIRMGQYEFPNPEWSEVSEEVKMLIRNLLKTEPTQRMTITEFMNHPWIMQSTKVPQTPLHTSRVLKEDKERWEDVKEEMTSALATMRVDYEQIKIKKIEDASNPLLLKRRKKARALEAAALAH
Sequence of UniProt Q8IYT8 (whole entry, looked up): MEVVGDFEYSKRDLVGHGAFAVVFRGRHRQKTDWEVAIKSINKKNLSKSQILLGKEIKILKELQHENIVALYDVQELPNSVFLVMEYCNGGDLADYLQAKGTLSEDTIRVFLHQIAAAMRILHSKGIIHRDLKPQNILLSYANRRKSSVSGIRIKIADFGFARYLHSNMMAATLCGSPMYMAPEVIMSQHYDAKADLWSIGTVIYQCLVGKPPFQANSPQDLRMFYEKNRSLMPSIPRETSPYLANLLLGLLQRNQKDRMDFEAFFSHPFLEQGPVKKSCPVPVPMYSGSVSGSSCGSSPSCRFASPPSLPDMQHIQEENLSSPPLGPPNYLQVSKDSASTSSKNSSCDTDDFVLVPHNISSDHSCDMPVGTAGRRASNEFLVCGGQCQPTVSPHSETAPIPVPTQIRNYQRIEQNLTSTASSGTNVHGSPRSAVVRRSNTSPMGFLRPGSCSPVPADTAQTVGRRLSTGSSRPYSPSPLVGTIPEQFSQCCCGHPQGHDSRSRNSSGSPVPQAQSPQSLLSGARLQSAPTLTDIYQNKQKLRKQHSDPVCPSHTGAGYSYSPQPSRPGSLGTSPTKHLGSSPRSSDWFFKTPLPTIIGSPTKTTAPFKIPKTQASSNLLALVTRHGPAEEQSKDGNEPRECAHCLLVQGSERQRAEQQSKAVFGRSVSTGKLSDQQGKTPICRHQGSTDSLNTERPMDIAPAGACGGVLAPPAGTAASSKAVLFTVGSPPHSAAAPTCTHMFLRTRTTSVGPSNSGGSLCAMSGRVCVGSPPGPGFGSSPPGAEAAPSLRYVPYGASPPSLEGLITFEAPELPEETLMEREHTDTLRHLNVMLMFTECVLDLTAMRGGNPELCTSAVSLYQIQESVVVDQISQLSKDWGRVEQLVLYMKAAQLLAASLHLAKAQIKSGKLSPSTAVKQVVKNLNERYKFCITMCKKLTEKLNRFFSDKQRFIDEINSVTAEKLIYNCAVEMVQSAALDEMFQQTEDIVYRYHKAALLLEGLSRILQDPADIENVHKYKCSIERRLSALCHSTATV
Sequence of UniProt P10398 (whole entry, looked up): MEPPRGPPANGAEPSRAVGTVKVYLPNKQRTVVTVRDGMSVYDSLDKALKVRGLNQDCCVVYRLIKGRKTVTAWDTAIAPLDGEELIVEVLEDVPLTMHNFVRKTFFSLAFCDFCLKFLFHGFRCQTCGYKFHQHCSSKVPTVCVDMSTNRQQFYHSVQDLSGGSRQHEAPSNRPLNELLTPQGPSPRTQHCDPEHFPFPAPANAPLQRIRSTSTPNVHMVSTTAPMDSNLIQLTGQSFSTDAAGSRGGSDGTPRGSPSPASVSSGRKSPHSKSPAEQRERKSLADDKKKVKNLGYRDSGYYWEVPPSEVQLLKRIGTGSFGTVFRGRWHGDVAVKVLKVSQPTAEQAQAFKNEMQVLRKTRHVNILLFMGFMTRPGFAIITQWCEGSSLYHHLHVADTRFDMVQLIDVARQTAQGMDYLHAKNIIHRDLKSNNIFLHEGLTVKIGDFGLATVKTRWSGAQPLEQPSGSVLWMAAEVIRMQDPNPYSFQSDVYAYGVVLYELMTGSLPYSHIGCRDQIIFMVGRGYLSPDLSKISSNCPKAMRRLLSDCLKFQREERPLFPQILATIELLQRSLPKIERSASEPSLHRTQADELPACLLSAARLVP
Sequence of UniProt Q04912 (whole entry, looked up): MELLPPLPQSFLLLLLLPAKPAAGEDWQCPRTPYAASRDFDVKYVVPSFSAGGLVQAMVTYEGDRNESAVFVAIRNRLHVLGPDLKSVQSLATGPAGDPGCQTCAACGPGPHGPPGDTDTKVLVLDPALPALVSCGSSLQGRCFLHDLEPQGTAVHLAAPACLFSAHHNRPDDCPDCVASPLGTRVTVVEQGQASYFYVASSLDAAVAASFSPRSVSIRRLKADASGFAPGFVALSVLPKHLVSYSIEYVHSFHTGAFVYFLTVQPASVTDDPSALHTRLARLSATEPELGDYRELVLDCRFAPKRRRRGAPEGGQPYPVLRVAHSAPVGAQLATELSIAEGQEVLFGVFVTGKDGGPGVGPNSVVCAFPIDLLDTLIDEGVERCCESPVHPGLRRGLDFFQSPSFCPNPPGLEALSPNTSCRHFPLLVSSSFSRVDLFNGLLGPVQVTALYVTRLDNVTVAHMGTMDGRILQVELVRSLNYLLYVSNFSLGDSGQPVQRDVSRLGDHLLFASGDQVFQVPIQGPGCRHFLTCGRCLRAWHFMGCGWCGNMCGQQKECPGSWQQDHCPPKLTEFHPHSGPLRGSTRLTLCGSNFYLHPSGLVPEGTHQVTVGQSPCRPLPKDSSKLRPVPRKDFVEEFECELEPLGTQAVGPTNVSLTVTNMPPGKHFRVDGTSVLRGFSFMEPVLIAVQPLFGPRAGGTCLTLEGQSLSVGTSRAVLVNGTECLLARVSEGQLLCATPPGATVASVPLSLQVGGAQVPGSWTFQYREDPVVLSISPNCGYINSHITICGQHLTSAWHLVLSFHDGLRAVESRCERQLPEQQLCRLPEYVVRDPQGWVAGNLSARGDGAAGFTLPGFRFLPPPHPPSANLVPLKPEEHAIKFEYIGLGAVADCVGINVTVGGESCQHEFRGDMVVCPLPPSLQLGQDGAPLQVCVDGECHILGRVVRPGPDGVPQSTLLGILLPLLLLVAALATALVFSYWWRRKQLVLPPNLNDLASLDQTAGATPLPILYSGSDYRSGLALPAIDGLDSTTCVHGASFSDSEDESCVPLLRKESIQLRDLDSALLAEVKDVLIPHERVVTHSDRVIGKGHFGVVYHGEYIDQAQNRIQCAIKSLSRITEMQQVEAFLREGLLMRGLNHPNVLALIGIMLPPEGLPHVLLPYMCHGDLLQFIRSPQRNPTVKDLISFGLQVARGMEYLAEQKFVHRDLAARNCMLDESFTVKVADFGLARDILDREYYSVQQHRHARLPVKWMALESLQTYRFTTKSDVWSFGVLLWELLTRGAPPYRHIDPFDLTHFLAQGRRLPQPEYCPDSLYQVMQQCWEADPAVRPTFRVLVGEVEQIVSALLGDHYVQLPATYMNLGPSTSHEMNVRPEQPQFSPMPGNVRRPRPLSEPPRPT
Sequence of UniProt P36896 (whole entry, looked up): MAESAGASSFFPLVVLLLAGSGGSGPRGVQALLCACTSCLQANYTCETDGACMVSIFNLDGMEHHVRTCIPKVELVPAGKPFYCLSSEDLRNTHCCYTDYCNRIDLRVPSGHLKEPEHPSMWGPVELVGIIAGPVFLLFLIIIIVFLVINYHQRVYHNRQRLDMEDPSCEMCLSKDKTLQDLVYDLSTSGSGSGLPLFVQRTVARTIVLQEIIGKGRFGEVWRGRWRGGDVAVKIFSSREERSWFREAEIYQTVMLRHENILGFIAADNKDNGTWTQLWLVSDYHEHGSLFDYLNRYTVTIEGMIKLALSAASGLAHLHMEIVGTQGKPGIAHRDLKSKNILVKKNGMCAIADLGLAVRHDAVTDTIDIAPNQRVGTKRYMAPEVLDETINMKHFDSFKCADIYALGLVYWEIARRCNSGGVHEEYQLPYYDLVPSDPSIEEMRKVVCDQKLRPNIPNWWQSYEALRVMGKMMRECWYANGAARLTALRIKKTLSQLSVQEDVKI

Set 1
Compound: CCc1[nH]c(-c2ccc(OC)cc2)nc1-c1ccncc1
Observed: enzyme activity
Action: inhibitor
Concentration: 0.5 µM
Relative to: control
Measurement: remaining activity
Serine/threonine-protein kinase A-Raf (ARAF, Homo sapiens, UniProt P10398): 99.6%
Macrophage-stimulating protein receptor (MST1R, Homo sapiens, UniProt Q04912): 101%
Serine/threonine-protein kinase Nek6 (NEK6, Homo sapiens, UniProt Q9HC98): 95.3%
Casein kinase I isoform gamma-3 (CSNK1G3, Homo sapiens, UniProt Q9Y6M4): 106%
Serine/threonine-protein kinase ULK3 (ULK3, Homo sapiens, UniProt Q6PHR2): 83.4%
Mitogen-activated protein kinase kinase kinase 5 (MAP3K5, Homo sapiens, UniProt Q99683): 105%
MAP kinase-activated protein kinase 2 (MAPKAPK2, Homo sapiens, UniProt P49137): 100%
Serine/threonine-protein kinase Nek1 (NEK1, Homo sapiens, UniProt Q96PY6): 98.9%
Rhodopsin kinase GRK7 (GRK7, Homo sapiens, UniProt Q8WTQ7): 101%
Activin receptor type-1B (ACVR1B, Homo sapiens, UniProt P36896): 86.5%
Tyrosine-protein kinase JAK3 (JAK3, Homo sapiens, UniProt P52333): 96.1%
Dual specificity mitogen-activated protein kinase kinase 2 (MAP2K2, Homo sapiens, UniProt P36507): 105%
Serine/threonine-protein kinase ULK2 (ULK2, Homo sapiens, UniProt Q8IYT8): 98%

Set 2
Target: CCNE1, cyclin fold, Cln2 fusion (human)
Method: yeast growth competition, sequencing
Sample: yeast
Notes: weak parent motif
Relative to: not given
Reading: higher = stronger binding
Measurement: normalised enrichment score
Starting sequence: PKN2 docking peptide (human); VSAVQKLDFSDTM
T12V: 0.766
D11M: 0.273
V4E: 0.018
D8R: -0.181
S10T: 0.5
M13L: 0.572
V1P: 0.863
A3S: 0.379

Single results of other studies
SMN1 full length: SMN1, full length (human, UniProt Q16637, residues 1-294)
Sequence of UniProt Q16637 (whole entry, looked up): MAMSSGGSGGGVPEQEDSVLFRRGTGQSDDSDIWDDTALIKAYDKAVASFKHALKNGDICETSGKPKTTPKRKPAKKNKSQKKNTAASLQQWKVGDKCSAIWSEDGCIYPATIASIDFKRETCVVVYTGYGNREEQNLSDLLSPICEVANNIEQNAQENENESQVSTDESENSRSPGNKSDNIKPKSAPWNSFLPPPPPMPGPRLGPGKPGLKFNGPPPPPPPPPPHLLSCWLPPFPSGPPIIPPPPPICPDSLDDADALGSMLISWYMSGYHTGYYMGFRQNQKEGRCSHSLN
Tspo: Translocator protein (Tspo, Rattus norvegicus, UniProt P16257)
Sequence of UniProt P16257 (whole entry, looked up): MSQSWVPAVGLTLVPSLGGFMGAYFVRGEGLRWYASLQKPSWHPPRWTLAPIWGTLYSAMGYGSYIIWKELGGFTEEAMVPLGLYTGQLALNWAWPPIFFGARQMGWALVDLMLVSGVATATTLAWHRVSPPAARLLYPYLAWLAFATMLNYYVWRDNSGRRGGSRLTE
O=C(O)c1ccc(-c2coc3ncc(-c4ccccc4)cc23)cc1Cl
viability (sample B colorectal tumour organoid; 1 µM; relative to: DMSO): 113%

GGGCUCACCACGCACUUGCCAAGAACUUGCCUUGGCCCGCCCUCACCACGGCAAGCU
relative RNA binding (SMN1 full length; nitrocellulose filter binding; RNA, in vitro; 100 nM, whole RNA, constant flanks, single concentration, ends assumed; relative to: round 9 selected pool, higher = stronger binding): 4.8 % of pool

O=C(NCc1ncc(C(F)(F)F)cc1Cl)c1ccc2c(c1)C1(CCS(=O)(=O)CC1)[C@H](C1CC1)N2S(=O)(=O)c1ccc(F)cc1
inhibition (Tspo; radioligand binding, radioligand displacement; 10 µM): 7.97%

GGGCUCACCACGCACGUGGGCCAAGGUGGGGUUUGGUGUGCCUCACCACGGCAAGCU
relative RNA binding (SMN1 full length; nitrocellulose filter binding; RNA, in vitro; 100 nM, whole RNA, constant flanks, single concentration, ends assumed; relative to: round 9 selected pool, higher = stronger binding): 1.6 % of pool

CCCCN(CCCC)C(=O)CN1C[C@@H](c2cc(OC)c3c(c2)OCO3)[C@H](C(=O)O)[C@H]1CC(C)(C)CCC
inhibition (Tspo; radioligand binding, radioligand displacement; 10 µM): 22.9%

For quick reference, copied from above (set 2):
S10T: 0.5
A3S: 0.379
T12V: 0.766
D11M: 0.273
